Assay results from different studies.
A part holds a random share of what one study measured.

Block 1 — method: RNA Bind-n-Seq; form: RNA; sample: in vitro; tested at: 200 nM; setting: whole 134-nt RNA, ends assumed; with: 150 mM LiCl; relative to: input library; reading: higher = stronger binding; each molecule: 7-deaza-guanosine replaces G
Target: Ras GTPase-activating protein-binding protein 1, full length (G3BP1, Homo sapiens, UniProt Q13283)
UniProt Q13283, sequence (whole entry, looked up): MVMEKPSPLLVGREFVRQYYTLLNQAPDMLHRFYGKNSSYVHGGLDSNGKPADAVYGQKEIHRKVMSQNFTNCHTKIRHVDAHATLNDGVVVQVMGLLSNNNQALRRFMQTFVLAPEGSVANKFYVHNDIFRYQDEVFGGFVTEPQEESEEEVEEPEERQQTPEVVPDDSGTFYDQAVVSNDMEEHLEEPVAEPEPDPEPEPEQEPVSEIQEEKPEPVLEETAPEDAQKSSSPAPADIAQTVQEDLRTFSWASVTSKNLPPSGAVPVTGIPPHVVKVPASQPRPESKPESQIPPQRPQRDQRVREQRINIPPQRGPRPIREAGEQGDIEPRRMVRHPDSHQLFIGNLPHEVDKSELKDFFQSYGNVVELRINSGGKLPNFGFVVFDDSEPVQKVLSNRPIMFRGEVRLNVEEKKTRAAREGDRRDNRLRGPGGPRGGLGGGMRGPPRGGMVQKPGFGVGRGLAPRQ
All sequences stand within: GGGAGUUCUACAGUCCGACGAUC … UGGAAUUCUCGGGUGUCAAGG
Sequence | log2 enrichment
UGGAUCUUGGAGGGACCAACUUCCGUGUGCUUUGGGUGAAAGUAACGGACAAUGGGCUCCAGAAGGUGGAGAUGGAGAAUCAGAUCUAUG | -0.465
AAGUCCUGUGCUACACAUCGUAUGUACCGAAUCGGAAAAAAAGGUUUUUUUGGAGGAAAGUAUUAUGUUACGCCGUUCGGAUCUGCACUU | -2.29
UAACUUUAGAGGAGGAUCUGAUGGAUAUGGCAGUGGACGUGGAUUUGGGGAUGGCUAUAUUGGGUAUGGAGGAGGACCUGGAGGUGGCAA | -0.23
UGGCCCUGGUGGCAUGCGGGGAGGAAGAGGUGGCCUCAUGGAUCGUGGUGGUCCCGGUGGAAUGUUCAGAGGUAGCCGUGGUGGAGACAG | 0.147
UGGUUUUGGUGCCUGGCAUCGAAGAUGGUGUGUUCUUUCUGGAAACUGUAUAUCUUAUUGGACUUAUCCAGAUGAUGAGAAACGCAAGGU | -1.27
AAGUCCUGUGCUACACAUCGUAUGUACCGAAUCGGGUGGGAAAGGGUUUUUUUGGGAAAGUAUUAUGUUACGCCGUUCGGAUCUGCACUU | -0.821
CAAGUCCUGUGCUACACAUCGUAUGUACCGAAUCGGGAAAGGGAAAGGGUUUGGGAAAGUAUUAUGUUACGCCGUUCGGAUCUGCACUUC | -0.946
UAACUUUAGAGGAGGAUCUGAUGGAUAUGGCAGAGGACGUGGAUUUGGGGAUGGCUAUAAUGGGUAUGGAGGAGGACCUGGAGGUGGCAA | 0.00957

Block 2 — method: RNA Bind-n-Seq; form: RNA; sample: in vitro; tested at: 365 nM; relative to: no-protein control; reading: higher = stronger binding
Target: RNA binding protein fox-1 homolog 2, RRM domain, GST-SBP tag (RBFOX2, Homo sapiens, UniProt O43251-10, residues 100-194)
Setting: natural RNA segment, single round, ends assumed
All sequences stand within: GGGAGUUCUACAGUCCGACGAUC … UGGAAUUCUCGGGUGCCAA
Target sequence (chain): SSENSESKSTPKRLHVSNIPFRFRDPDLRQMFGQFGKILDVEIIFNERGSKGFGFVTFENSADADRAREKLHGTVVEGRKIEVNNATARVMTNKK
Sequence | RBNS enrichment (R)
GAGGGGAUUUCUUGGAAAAGGAGAGAGGAAUCCCCUAGAGCAGGGAAAGCAGUGCCUGCCAGCUGUUGUGCACCUUCCUGAGAAAUAAAUAUCCUCUAAAUUUUCAAACC | 0.939
CUCUUCAGCUCCCAGAAACUUACGCUUCCUCAUUUCUCAUAGCAUUUUAACUAGUGAACAUAAGGACAAUUUGCCUCAAUAGAAGACCAACAACCCCAUCAUGGAAUAUC | 0.368
AGAGGAGUACCAUGAAAGCACUGAGGAAACAUUUCUUCAUCGUGUUACACUGACAACCCACAUCUUGGCUUGUGAUGGAUCAAAUCUUUUAUGAAGCCUUCAGGGGGACU | 0.256
GGGGCGUCGCCCCUGCUGGCCGCCGCGUCCCCCGAGAUUGACCCACAAUAAAGCACAGGCCUUACCGCGGCGUCACCCUCUCCCACUCCUUUGUUCUGGGUCCUUUCGGG | 0.428
UCAGGUCUAGGAUGAUUAGGGUGUGGUAUUAUUUGGUUUGCAACAUCCCAAGGCAAUACUUCCAGACUAAGGUGGCCAUCCAGCAUUCCUUUGAGUCCUCCAAGAAAGAU | 0.206
CCCUCCUUCCCCCCACCCCCGUGUGAAGUGUGUUAUCACCAGCAGACACUGCCGGACUCCUGCCCACAGGGGCGUGGCCUGAAGGGCGAGUGUGAACAUGGCACUGCUGU | 0.638
CUUCCAAGCUUUUGGAGUUUCUCUCGUAUCGUAUUUAAAGAUUCUGCCUUCCCUAGUAGUAGGGACUGACAGAAUACACUUAACACAAACCUCAAGCUUUACUGACUUCA | 0.273
AGGGCCCCAUCUCAGCAUCGUAGUUACAUAGUUGAUCUUAACUAAGCUUGGGAAUACGUCACCUGAGAUCACAGGUGAUCCAAGCCGCAGAUGUGACAGCUGGGCUCUGA | 0.412

Block 3 — method: RNA Bind-n-Seq; form: RNA; sample: in vitro; tested at: not given; relative to: input RNA pool; reading: higher = stronger binding
Target: RING finger protein unkempt homolog, zinc fingers 1-6, GST-SBP tag (UNK, Homo sapiens, UniProt Q9C0B0, residues 30-357)
UniProt Q9C0B0, sequence (30-357, looked up): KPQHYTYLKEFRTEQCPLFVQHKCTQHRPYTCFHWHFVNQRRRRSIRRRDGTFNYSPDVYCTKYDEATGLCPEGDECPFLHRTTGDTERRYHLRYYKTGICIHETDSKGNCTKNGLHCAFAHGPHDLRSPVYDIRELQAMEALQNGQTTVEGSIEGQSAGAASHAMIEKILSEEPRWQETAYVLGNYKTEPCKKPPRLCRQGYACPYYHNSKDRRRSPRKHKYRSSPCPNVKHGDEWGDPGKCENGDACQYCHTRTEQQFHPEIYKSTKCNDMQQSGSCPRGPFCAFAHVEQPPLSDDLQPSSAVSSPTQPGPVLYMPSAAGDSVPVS
Setting: RNA with constant flanks, human and mouse sites, ends assumed
All sequences stand within: GGGAGUUCUACAGUCCGACGAUC … CAACAGAGGAUUGAGCAUCA
Sequence | bound/input enrichment [ratio]
GGACAUGAUUUGAGGGUGGGAACCUCGCAAGUUGUGACCUCUUGUUAACUUGGUCCCCAGAUUAGUAGGCCUUGGCCUUUCCAGCUGCCUUCAGUGCUGCGUGUUUGGUUCUCAGUUGUA | 0.847
CUCCUGUCUCGAUUUACUCGAAAUGAGUUUAAUCUGGAAAGCAAGAGCACCAUUGGAGUAGAGUUUGCAACAAGAAGCAUCCAGGUUGAUGGAAAAACAAUAAAGGCACAGAUAUGGGAC | 0.306
AAGCUGCUAUUUGAAACGAGAGAUAUAAGUCUAAUUAAACAGUAUGUUCAGCGACAAUGUAUGAAGCUUCUGGAAGGAAAGGCCAGCAUACAAGACUUUAUCUUUGCCAAGGAAUACAGA | 0.319
CCUCAAGACAUCGAGUGCUGCGGAGCCCUGGAGUACUACGACAAAGCCUUUGACCGCAUCACCACAAGGAGUGAGAAGCCCCUGCGGAGCAUCAAGCGCAUCUUUCACACCGUCACCACC | 0.109
GAUCAGAUUUCAACCUGGGACUGGAUUACAGAGGAUUGUUUCUAAUAACAACAUCAAUAUUCUAGAAGUCCCUGACAGCCUAGAAAUAAGCUGUUUGUCUUCUAUAAAGCAUUGCUAUAG | 0.123
CUUGACGAUGAUGAAUGUCCUUUACAAAUCUUCAGGGAAUGGCCAAGUGACAAAGGGAUUUUAGUCUUUCAGUUGAAGAGGAGACCACCGGACUACAUCCCAAAGAAAAUGAAGAAACAU | 0.164
GUUCUCUCUGUCACUGACUUAUUUGUAAGAGAAAAUUAGUUGGACUUGUUUAUUUUCUAGUAGCUUUUAUAAGUACACUCAAGAAUUUGUCAGGGAGAAUAAUUCUGAUAGUGCAUCCCA | 5.8
GUGUUCUGUUUUAUUUUGUUUUUUCACUUAUUCCUCAUAACAGUUUGUGAAACCGGUAUGUUAGCCCUUUUAUGAAUUGGCCAGAGAGGAUGAGUGGUCGGCCUAGGUCAUAUGUCUAGG | 0.456

Block 4 — method: protein binding microarray; form: double-stranded DNA, one strand shown; sample: in vitro; tested at: not given; relative to: not given; reading: higher = stronger binding
Target: Histone acetyltransferase KAT6A, winged helix 2, GST fusion (KAT6A, Homo sapiens, UniProt Q92794, residues 85-181)
Setting: 8-mer, flanks averaged, mean of 2 arrays, mostly near background
Residues (chain): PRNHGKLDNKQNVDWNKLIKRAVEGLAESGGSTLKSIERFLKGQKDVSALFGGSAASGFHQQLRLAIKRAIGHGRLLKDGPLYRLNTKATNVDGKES
Sequence | E-score
ATAACGCG | 0.0141
GCGTTCTA | -0.00677
AGGACAAG | -0.0435
CCGGGTCG | 0.185
GAGGAGCC | 0.00765
CAAATAGG | -0.0767
GAATAATA | 0.0012
ACAGTGAC | 0.0383
AGACGACG | -0.168
AGAGGCCA | -0.0865
GGTTTTTA | 0.0238
CGTACCGA | -0.0595
AGCCCTCA | 0.0197
CTCCACAC | -0.0551
ATGTCCAA | 0.0413
AACAGGTG | -0.127
CAACCGTA | -0.236
AGAAGTCA | 0.134
CTTTGGCA | -0.0347
GCGAAGCC | 0.15
CATCTAGC | -0.0573

Some of these lines once more (block 3):
Sequence | bound/input enrichment [ratio]
GUGUUCUGUUUUAUUUUGUUUUUUCACUUAUUCCUCAUAACAGUUUGUGAAACCGGUAUGUUAGCCCUUUUAUGAAUUGGCCAGAGAGGAUGAGUGGUCGGCCUAGGUCAUAUGUCUAGG | 0.456
CCUCAAGACAUCGAGUGCUGCGGAGCCCUGGAGUACUACGACAAAGCCUUUGACCGCAUCACCACAAGGAGUGAGAAGCCCCUGCGGAGCAUCAAGCGCAUCUUUCACACCGUCACCACC | 0.109
GUUCUCUCUGUCACUGACUUAUUUGUAAGAGAAAAUUAGUUGGACUUGUUUAUUUUCUAGUAGCUUUUAUAAGUACACUCAAGAAUUUGUCAGGGAGAAUAAUUCUGAUAGUGCAUCCCA | 5.8
